Results collected from several papers.
Each numbered part is a random draw from the data of one study; scales do not carry over between parts. Substitutions count along the parent as printed.

Study 1 — target: CCNF, cyclin fold, Cln2 fusion (human); method: yeast growth competition, sequencing; matrix: yeast; setting: strong parent motif; relative to: not given; reading: higher = stronger binding
Starting sequence: WEE1 docking peptide (human); HKTFRKLRLFDTP
Variant	normalised enrichment score
H1G	1.96
T3N	1.5
L9Y	3.4
R8I	5.48
R5E	2.54
K6V	2.29
R5A L7A	1.59
F10V	1.19
D11A	1.72
F4Y	2.79
D11T	1.7
R5G	0.906
L7Y	2.53
L7S	0.919
T3F	2.72
L7R	2.13
L7C	2.62
T12K	2.22
F4G	2.11
P13Q	1.92
T3W	2.22
R8S	1.81
L7D	0.119
R5W	1.67
L7Q	1.7

Study 2 — method: DHFR PCA, deep sequencing; matrix: yeast; added: (+)-ABA 1.4 µM; relative to: wild-type fitted maximum; reading: higher = stronger binding
Target: ABI1, truncated, D143A, DHFR fusion (Arabidopsis thaliana)
Setting: methotrexate growth selection, single substitutions
Starting sequence: PYL1, truncated, DHFR fusion (Arabidopsis thaliana); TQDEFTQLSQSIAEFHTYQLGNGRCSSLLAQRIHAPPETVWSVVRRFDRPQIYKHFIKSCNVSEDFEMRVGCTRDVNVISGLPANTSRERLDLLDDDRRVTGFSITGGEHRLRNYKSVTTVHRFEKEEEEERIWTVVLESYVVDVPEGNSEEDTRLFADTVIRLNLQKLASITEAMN; partner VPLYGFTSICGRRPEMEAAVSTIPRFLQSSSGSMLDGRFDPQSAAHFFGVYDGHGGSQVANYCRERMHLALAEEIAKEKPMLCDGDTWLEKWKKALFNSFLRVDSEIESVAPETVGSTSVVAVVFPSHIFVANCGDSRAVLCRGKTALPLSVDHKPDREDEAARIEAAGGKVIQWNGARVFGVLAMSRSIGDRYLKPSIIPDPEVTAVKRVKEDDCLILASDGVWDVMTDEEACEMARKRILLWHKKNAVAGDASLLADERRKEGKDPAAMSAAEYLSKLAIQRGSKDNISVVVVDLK
Variant	relative binding score [%]
N149S	60.2
R111L	6.84
S87Y	35.1
A35I	-15.7
S27G	76.1
R111T	10
I133Q	77.2
G148H	11
I57H	-11.2
D65T	34.6
L28V	56.8
S87D	-0.675
Q19M	31.7
L169V	-5.54
G107I	-7.87

Study 3 — method: RNA Bind-n-Seq; form: RNA; matrix: in vitro; concentration: 365 nM; relative to: no-protein control; reading: higher = stronger binding
Target: RNA binding protein fox-1 homolog 2, RRM domain, GST-SBP tag (RBFOX2, Homo sapiens, UniProt O43251-10, residues 100-194)
Setting: natural RNA segment, single round, ends assumed
Construct (chain): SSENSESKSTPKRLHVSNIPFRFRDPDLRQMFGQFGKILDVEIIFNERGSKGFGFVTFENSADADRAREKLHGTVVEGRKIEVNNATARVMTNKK
Sequence	RBNS enrichment (R)
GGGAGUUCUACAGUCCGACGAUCUGCAGACUCAUCCUUUUUAAAUGAGACUUGUUUUCCCCUCUCUUUGAGUCAAGUCAAAUAUGUAGAUUGCCUUUGGCAAUUCUUCUUCUCAAGCACUGACACUCAUUACCUGGAAUUCUCGGGUGCCAA	0.6
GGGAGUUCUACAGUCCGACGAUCUUCCAUCUGCUGUACUAACCAGGAGCCCUCCCAUGGAGAUGCAGCCCCCUGUCUCUCCUCAGCAGUCUGAGUGCAACCCCGUCGGUGCUCUGCAGGAGCUGGUGGUGCAAUGGAAUUCUCGGGUGCCAA	0.385
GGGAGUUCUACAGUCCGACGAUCGAGAGCCCUGCCGAUGUUGGGUUCUCCUCCUAUUGGGGAAACUUGAUCACAGAUGGAACACGUGCAGAUUGAUUGAUGAGUGCUGUGGAGAAAGCAGCAGCGUAGCGGGAUGGAAUUCUCGGGUGCCAA	0.782
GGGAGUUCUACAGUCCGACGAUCUAACAUCAGCCUUCCUCGCCCAUCUCUUUCCAUCUGUCUCUUCUUCAUUAAACACUUACUGAGUAUGAUUUCUGUGUCAGGCAGUGGUUUUCAUUUGUGGGGACGUGUCGUGGAAUUCUCGGGUGCCAA	0.487
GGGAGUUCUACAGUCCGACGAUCCUCUCCCUCCUGCUUUCUUUUUGGAGCUUCUUUGGGUCAAAGACAUGGAAGUUGCUUCAGAUAUCUGAUACUGUGAAUGUUUGAACAUAUCCGUGGCCUUCACCUCUCCAUGGAAUUCUCGGGUGCCAA	0.553
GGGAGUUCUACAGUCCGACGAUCUCUGGAAUUGGCCUCUGUGGGCAUUGACUCGUCUUGGCCUAGGAGGCAUUGGUGCCUCCCUGGCAAGUCCUUAACGUACAGUACCUGUAGCUGUGAGUGUGGCCUGCUGCUGGAAUUCUCGGGUGCCAA	0.459
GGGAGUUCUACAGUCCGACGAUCGCAAAAAAUGUGUUUCAGUUGUACUGUAACCAAAAAUUCUGUCAAUAAAAUAUUUGAGGUUUUCCUGGCUUUGAAGAGUUUAUUUUCUUUUGCGUCUGUCUGUCCCACACUGGAAUUCUCGGGUGCCAA	0.359
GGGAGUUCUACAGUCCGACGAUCUAAAGGGGGAAUCUUAUAAAAUCCUGUGCAAUAGACAUACAUAGCUGUACUCAGAAGGGCUGUCUUCAUCUGGACUCCCACUAGAGAACAGGCGAGCUCCUGAGGGCUCUUGGAAUUCUCGGGUGCCAA	0.261
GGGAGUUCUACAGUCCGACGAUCUGCUGGUGAUUUAACCAGUGCUUGGAAAAAUCUUGCUUGGCUAUUUCUGCAUCAUUUCUUAAGGCUGCCUUCCUCUCUCAGUACGUUGCCCUCUGUGCUAUCAUCUUAUCUGGAAUUCUCGGGUGCCAA	1.13
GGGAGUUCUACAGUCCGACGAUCUUACAUAAUUUAAUACAGAUUGAUGUUAAUACUUGUGUAUUUACAUAACCAUUUCCUUCUUGUCACUGAAAUAUAUGGACCUGAAUUUGUAUCCUGACUGAUUCAACCCAUGGAAUUCUCGGGUGCCAA	0.388
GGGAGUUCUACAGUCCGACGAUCUCCUGGGUAGAAUCUUAAUAAUAGAAGGACUUAGAGAGAAAAUCAAAUCCACCCUCCUUGUGGGGAAGAUGGUAAUAUGGGACCAAGAGCAGCAAACGUGCUCACCUGGUUGGAAUUCUCGGGUGCCAA	0.704
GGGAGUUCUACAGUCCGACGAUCUGUUGGCCUCAGAGUCACUCCUGCCCCCUCUCCCUGACUUGGUGCUCACAUGCACCUCACUAGGGUUUGUGACCAGGGUCUGGAUGAGCUUGAAUUUGAAUGAAUUGAGUUGGAAUUCUCGGGUGCCAA	0.587

Study 4 — method: protein-binding microarray; form: double-stranded DNA, one strand shown; matrix: in vitro; concentration: 250 nM; setting: 60-bp whole probe; added: salmon DNA 0.4 mg/ml; relative to: random background probes; reading: higher = stronger binding; constant ends, left off below: GCCTAGCAC … GTCTTGATTCGCTTGACGCTGCTG
Target: Interferon regulatory factor 7, full length, phosphomimetic (IRF7, Homo sapiens, UniProt Q92985, residues 1-503, S101K/S471D/S472D/S475D/S476D/S477D/S483D/S484D/S487D)
Construct (chain): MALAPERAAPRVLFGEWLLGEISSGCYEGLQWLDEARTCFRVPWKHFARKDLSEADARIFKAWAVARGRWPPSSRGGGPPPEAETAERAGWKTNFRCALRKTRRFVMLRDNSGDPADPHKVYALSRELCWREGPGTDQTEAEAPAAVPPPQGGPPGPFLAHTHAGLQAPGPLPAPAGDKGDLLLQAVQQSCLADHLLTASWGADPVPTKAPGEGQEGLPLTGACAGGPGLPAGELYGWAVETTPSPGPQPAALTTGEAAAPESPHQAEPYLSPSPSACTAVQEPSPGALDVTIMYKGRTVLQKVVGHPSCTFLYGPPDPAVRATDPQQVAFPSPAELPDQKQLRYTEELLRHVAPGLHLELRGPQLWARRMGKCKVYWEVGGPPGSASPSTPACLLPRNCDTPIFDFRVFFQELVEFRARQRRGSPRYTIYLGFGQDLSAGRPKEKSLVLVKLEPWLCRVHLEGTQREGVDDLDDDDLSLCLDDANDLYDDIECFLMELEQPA
Sequence	log fluorescence [z-score]
GACCGACTGCTTCTCCTGACGTGCTAG	-0.379
AGTCTCTTCTGGGACTCATGGTGCTAG	0.262
TTCCAATTCTTTTTATGCTTGTGCTAG	1.27
TCATCTCTGGACTGTGTGACTGTGCTA	0.0162
GGAAATATTTACCTCTCACGGTGCTAG	0.292
TCATGTTTCTAATATTCTACTGTGCTA	1.12
TAAGGTATCGACACTGGGTTAGTGCTA	-0.113
GACGGTTTCAACACTGGGGACGTGCTA	0.337
TCATTTATATGCTATGTAACTGTGCTA	1.09
GACGGACTGGGGTTTCAGGACGTGCTA	-0.921
TTAGCTATCGGTTTCGGTTAGTGCTAG	7.61
ATAGGTTTCGGGTATCGGTTAGTGCTA	8.1
GACGGACTGGGACTGAGGACGTGCTAG	-0.774
ATGGCTTTGCAGATAAATATGTGCTAG	-0.423
GACGGTTTAGACACTGGGGACGTGCTA	-0.0133
TTAGATTTCGGGTATCGATTTGTGCTA	3.59
TTAGATTTCAGTTTCGCTTAGTGCTAG	7.29

Single results of other studies
Molecule	target	test	test system	setting	how to read	endpoint	result
PhoQ, residues 284 288 289 292 302 303 NLSRDF	PhoP, residues 12 14 15 18 19 GHCSL (Escherichia coli, UniProt P23836)	Sort-seq, refers to: YFP reporter	E. coli	PhoQ-PhoP variant library, added: 10 µM Mg2+	relative to: high Mg2+ state, higher = stronger signaling	fold induction	14.4

Repeated from above (study 1):
Variant	normalised enrichment score
R5E	2.54
K6V	2.29
R5A L7A	1.59
F10V	1.19
D11A	1.72
F4Y	2.79
D11T	1.7
R5G	0.906
L7Y	2.53
L7S	0.919
T3F	2.72
L7R	2.13
